Assay results from different studies.
A part holds a random share of what one study measured. Substitutions count along the parent as printed.

Study 1
Target: CCND1, cyclin fold, Cln2 fusion (human)
Technique: yeast growth competition, sequencing
Matrix: yeast
Notes: weak parent motif
Reference: not given
Direction: higher = stronger binding
Endpoint: normalised enrichment score
Starting sequence: WEE1 docking peptide (human); HKTFRKLRLFDTP
P13Y: 0.0955
K2P: 0.208
D11R: -0.0112
T12R: 0.319
P13W: -0.242
R8S: 0.824
T12Y: -0.17
L9G: 0.307
T12V: 0.229
F4K: 0.204
P13R: -0.451
K2S: 0.207

Study 2
Target: Prothrombin, mature alpha-thrombin (F2, Homo sapiens, UniProt P00734)
Technique: aptamer microarray, sandwich
Form: DNA with 2'F-ANA
Matrix: in vitro
Concentration: 200 nM
Notes: whole 15-mer aptamer, many near background
Together with: Cy3 exosite-II aptamer, 400 nM
Direction: higher = stronger binding
Endpoint: mean fluorescence intensity
Oligonucleotide: GGTTGGTGTGGTTGG
2'F-ANA at 3 4 5 6 10 13: 48.1 a.u.
2'F-ANA at 2 3 6 10 11 13 14: 234 a.u.
2'F-ANA at 2 4 5 8 10 13 15: 46.6 a.u.
2'F-ANA at 2 3 5 6 7 8 12 13 14: 55.6 a.u.
2'F-ANA at 1 3 5 6 8 9 10 12: 55.1 a.u.
2'F-ANA at 1 4 6 8 9 10 13 14: 54.1 a.u.
2'F-ANA at 2 5 6 8 9 10 11 14: 56.1 a.u.
2'F-ANA at 1 3 4 5 6 7 9 11 13: 58.7 a.u.
2'F-ANA at 1 5 6 9 12 13: 75.5 a.u.
2'F-ANA at 4 5 6 8 10 13 15: 46.1 a.u.
2'F-ANA at 2 3 4 6 7 8 10 11 12 14: 152 a.u.
2'F-ANA at 3 5 6 7 8 10 11 12 13 14: 56.1 a.u.
2'F-ANA at 3 5 10 14: 73.6 a.u.
2'F-ANA at 1 2 3 10 11 13 15: 62.6 a.u.
2'F-ANA at 7 8 9 10 11 12: 229 a.u.
2'F-ANA at 1 3 6 7 10 12 15: 106 a.u.
2'F-ANA at 2 4 5 6 7 10 12 13 15: 55.2 a.u.
2'F-ANA at 2 3 4 5 6 7 9 10 11 12 14: 60.4 a.u.

Study 3
Target: Ras GTPase-activating protein-binding protein 1, full length (G3BP1, Homo sapiens, UniProt Q13283)
Sequence of UniProt Q13283 (whole entry, looked up): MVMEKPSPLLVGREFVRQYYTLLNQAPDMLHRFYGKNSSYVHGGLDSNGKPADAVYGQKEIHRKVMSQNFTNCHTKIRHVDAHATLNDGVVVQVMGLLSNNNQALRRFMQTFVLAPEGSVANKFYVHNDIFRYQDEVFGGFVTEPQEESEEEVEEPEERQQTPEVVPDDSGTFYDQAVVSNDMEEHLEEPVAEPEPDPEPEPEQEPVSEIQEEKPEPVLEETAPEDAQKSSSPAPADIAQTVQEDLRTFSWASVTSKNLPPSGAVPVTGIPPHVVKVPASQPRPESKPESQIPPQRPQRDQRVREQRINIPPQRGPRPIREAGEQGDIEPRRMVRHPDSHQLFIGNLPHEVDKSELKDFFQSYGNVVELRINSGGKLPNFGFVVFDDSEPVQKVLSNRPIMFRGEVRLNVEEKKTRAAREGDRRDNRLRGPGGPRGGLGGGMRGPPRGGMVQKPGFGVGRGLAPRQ
Technique: RNA Bind-n-Seq
Form: RNA
Matrix: in vitro
Concentration: 200 nM
Notes: whole 134-nt RNA, ends assumed
Together with: 150 mM KCl
Reference: input library
Direction: higher = stronger binding
Endpoint: log2 enrichment
Shared flanks, not repeated: GGGAGUUCUACAGUCCGACGAUC … UGGAAUUCUCGGGUGUCAAGG
GCAGGAAGUAAAAACAAAUGGAAAUGCUUCGGAUAGUGGCAGGGGUGGGGGUUGCUGAGGAAAGGGUGGGAUGGGAGUGGGUAAAGAGUU: 1.06
GUCCUGUGCUACACAUCGUAUGUACCGAAUCGGAAAAAAGGAAAAAAGGGGAAAAAAGGAAAGUAUUAUGUUACGCCGUUCGGAUCUGCA: -0.823
UCAAGUCCUGUGCUACACAUCGUAUGUACCGAAUCGGGGCCGGGCCGGCCGGGGAAAGUAUUAUGUUACGCCGUUCGGAUCUGCACUUCC: -0.254
UGGCCCUGGUGGCAUGCGGGGAGGAAGAGGUGGCCUCAUGGAUCGUGGUGGUCCCGGUGGAAUGUUCAGAGGUGGCCGUGGUGGAAACAG: 0.218
CACAGACAACACGCACCCAAACAGACACAGAGGGAAGGGGUUGGGAUGGGGACAGGGUGCACAGCAGGGCGGGGUAGGACCCCAGCCCCU: 1.91
AGUCCUGUGCUACACAUCGUAUGUACCGAAUCGGCCCCCGGCCCCCGGGCCCCCGGGAAAGUAUUAUGUUACGCCGUUCGGAUCUGCACU: -0.491
CAAGUCCUGUGCUACACAUCGUAUGUACCGAAUCGGGUGGGAAAAAAAGGGUGGGAAAGUAUUAUGUUACGCCGUUCGGAUCUGCACUUC: 0.419
CCUGUGCUACACAUCGUAUGUACCGAAUCGGCCCCCCCGGGCCCCCCCGGGCCCCCCCGGAAAGUAUUAUGUUACGCCGUUCGGAUCUGC: -0.123
ACCAUGCAGGUGGGCAUCUUUGGGAAGUGGGGCAAGGGGGGGAUAGGGAGGGGGGUAACAAUUUGGGAACAGGUGGUCCCAGGUCGUUUC: 1.07
AGUCCUGUGCUACACAUCGUAUGUACCGAAUCGGAAAAAGGAAAAAAAGGUUUUUGGAAAGUAUUAUGUUACGCCGUUCGGAUCUGCACU: -1.74
GUCCUGUGCUACACAUCGUAUGUACCGAAUCGGGUUUUUGGGUUUUUGGGUUUUUGGGAAAGUAUUAUGUUACGCCGUUCGGAUCUGCAC: -0.431
ACCAUGCAGAUGGGCAUCUUUGGGAAGUGGGGCAAGGGGGGGAUAGGGAGGGGGGUAACACUUUGGGAACAGGUGGUCCCAGGUCGUUUC: 1.19
UGUCUUUCCUGGUGACUAGGAUGUCGUCGGAGGAGGACAAGAGCGUGGAGCAGCCGCAGCCGCCGCCACCACCCCCCGAGGAGCCUGGAG: -0.276
CCUCAAGUCCUGUGCUACACAUCGUAUGUACCGAAUCGGGUGGUGGGGUGGGGAAAGUAUUAUGUUACGCCGUUCGGAUCUGCACUUCCA: 0.78

Study 4
Target: CREB3L1, bZIP domain (human)
Technique: DHFR protein complementation
Matrix: yeast
Notes: single substitutions, most at no-binding floor
Reference: wild-type JUN-FOS pair
Direction: higher = stronger binding
Endpoint: binding fitness
Starting sequence: JUN, bZIP domain (human); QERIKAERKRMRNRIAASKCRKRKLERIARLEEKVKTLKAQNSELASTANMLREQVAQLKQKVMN; partner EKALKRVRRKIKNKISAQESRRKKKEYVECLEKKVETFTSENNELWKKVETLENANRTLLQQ
E33V: -1.39 natural log
L31A: -1.4 natural log
S47V: -1.36 natural log
T37W: -1.31 natural log
K34W: -1.11 natural log
R53V: -1.55 natural log
V35T: -1.49 natural log
K34R: -1.41 natural log
A29T: -1.42 natural log

Study 5
Target: Interferon regulatory factor 3, full length, phosphomimetic (IRF3, Homo sapiens, UniProt Q14653, residues 1-427, S386D/S396D/S398D/S402D/T404D/S405D)
Sequence of UniProt Q14653 (whole entry, unmodified, looked up): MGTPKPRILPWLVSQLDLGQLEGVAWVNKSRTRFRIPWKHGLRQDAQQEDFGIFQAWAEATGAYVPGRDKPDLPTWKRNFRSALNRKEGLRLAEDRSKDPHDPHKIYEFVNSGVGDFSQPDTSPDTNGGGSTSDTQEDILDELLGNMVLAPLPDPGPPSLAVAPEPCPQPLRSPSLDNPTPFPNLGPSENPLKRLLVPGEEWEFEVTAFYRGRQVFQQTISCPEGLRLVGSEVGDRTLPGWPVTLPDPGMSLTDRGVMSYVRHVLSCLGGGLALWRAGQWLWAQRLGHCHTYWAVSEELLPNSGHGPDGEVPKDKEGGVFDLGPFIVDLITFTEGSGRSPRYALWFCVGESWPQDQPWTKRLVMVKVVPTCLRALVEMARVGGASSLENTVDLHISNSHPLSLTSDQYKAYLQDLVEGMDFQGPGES
Technique: protein-binding microarray
Form: double-stranded DNA, one strand shown
Matrix: in vitro
Concentration: 2540 nM top
Notes: 60-bp whole probe
Together with: salmon DNA 0.4 mg/ml
Reference: random background probes
Direction: higher = stronger binding
Endpoint: fitted relative affinity
Shared flanks, not repeated: GCCTAGCAC … GTCTTGATTCGCTTGACGCTGCTG
TCAACTATTGCTTCCTCACTGTGCTAG: 0.231 z-score
TCATGTTTCTAATATTCTACTGTGCTA: 1.11 z-score
TGAGGTCTCGGTCTCGGTTAGTGCTAG: 0.641 z-score
GTAGAACTGAGACTGGATTAGTGCTAG: -0.318 z-score
TTAGGTTTCGGACTGGGATAGTGCTAG: 4 z-score
TCACTTCTCTTTTTGCTACTGTGCTAG: 3.32 z-score
GACGAACTGAGACTGGAGAAGTGCTAG: -0.296 z-score
GACGATACCGGGTTTCGAGACGTGCTA: 0.739 z-score
TTAGATCTCAGTCTCGATAAGTGCTAG: 0.594 z-score
GACGGTTTCGACTATCGGGAGGTGCTA: 2.85 z-score
GACGGTCTCGGGCTCGGGACGTGCTAG: -0.263 z-score
TTAGGTATCCTTCTGCTTTAGTGCTAG: 4.3 z-score
GACGGTTTCGGACTGGGGATGTGCTAG: 4.2 z-score
GACGATTTCGGGCATCGAGACGTGCTA: 0.653 z-score
GACGGACTGGGGGCTGGGGACGTGCTA: -0.71 z-score
GACGGCCTGGACTATCGGGACGTGCTA: -0.972 z-score
TTATTTTTTTTATTTATAAAGTGCTAG: 1.48 z-score
TTAGGTCACGGTATCGGTTAGTGCTAG: 1.57 z-score
TTAGGTTTCGGGACTCGGTTAGTGCTA: 4.15 z-score
AACGGTTTCCTTCTCCTGACGTGCTAG: 9.91 z-score
CTGTTTCCATCTCTCAAAAGGTGCTAG: 9.58 z-score
TTAGCTATCAGTCTCGATTAGTGCTAG: 1.41 z-score
TCAGCTATACCACTCTTACTGTGCTAG: 0.191 z-score
TCAGCTCTGTTGCCTGGTACTGTGCTA: 0.0106 z-score
TCATTTTCACTTTTCCTACTGTGCTAG: 5.01 z-score

Study 6
Target: ABI1, truncated, D143A, DHFR fusion (Arabidopsis thaliana)
Technique: DHFR PCA, deep sequencing
Matrix: yeast
Notes: methotrexate growth selection, single substitutions
Together with: (+)-ABA 2500 µM
Reference: wild-type fitted maximum
Direction: higher = stronger binding
Endpoint: relative binding score
Starting sequence: PYL1, truncated, DHFR fusion (Arabidopsis thaliana); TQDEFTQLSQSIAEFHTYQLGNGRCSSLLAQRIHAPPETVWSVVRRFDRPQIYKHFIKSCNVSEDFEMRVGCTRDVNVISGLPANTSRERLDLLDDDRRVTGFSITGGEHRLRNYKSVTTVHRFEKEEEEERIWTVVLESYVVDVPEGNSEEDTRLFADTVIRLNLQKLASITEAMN; partner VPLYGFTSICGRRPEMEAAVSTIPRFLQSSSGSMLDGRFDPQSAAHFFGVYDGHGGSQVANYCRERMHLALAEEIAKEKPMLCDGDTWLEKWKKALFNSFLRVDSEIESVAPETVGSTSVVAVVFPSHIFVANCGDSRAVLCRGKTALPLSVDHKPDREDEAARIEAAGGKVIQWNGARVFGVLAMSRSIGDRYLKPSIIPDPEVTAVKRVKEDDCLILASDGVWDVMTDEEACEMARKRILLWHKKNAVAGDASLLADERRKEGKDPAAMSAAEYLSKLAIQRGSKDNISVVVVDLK
S9N: 107%
E67C: 95.4%
V44K: 64.4%
E4A: 101%
S117F: -3.05%
N114C: 91.6%
R74T: 6.81%
A175E: 94.2%
K116S: 103%
C60G: 59.3%
F66P: 91.7%
R90E: 98.9%
D144A: 90.4%
H122S: 95.4%
L28W: 94.3%
M176W: 93.8%
A158D: 14%
N22K: 103%
K126G: 108%
E131V: 99.3%

Repeated from above (study 4):
E33V: -1.39 natural log
L31A: -1.4 natural log
S47V: -1.36 natural log
T37W: -1.31 natural log
K34W: -1.11 natural log
R53V: -1.55 natural log
V35T: -1.49 natural log
K34R: -1.41 natural log
A29T: -1.42 natural log
